Measured values gathered from unrelated publications.
Each line is one published result; not all experiments were run side by side.

O=c1cc(-c2ccccc2)oc2c(Br)c(O)c(O)c(O)c12 — Tmax (C57BL/6 mouse, plasma; oral, 250 mg/kg, single dose): 1.6 h
CC[C@H](C)[C@H](NC(=O)CNC(=O)[C@@H](NC(=O)[C@H](Cc1ccc(O)cc1)NC(=O)[C@@H](NC(=O)[C@H](CO)NC(=O)[C@@H](NC(=O)[C@H](C)NC(=O)[C@@H]1CCCN1C(=O)[C@@H](NC(=O)[C@H](Cc1ccccc1)NC(=O)[C@H](CCCCN)NC(=O)[C@H](CCC(=O)O)NC(=O)[C@H](Cc1ccc(O)cc1)NC(=O)[C@H](CC(C)C)NC(=O)[C@H](CC(=O)O)NC(=O)[C@H](CCCNC(=N)N)NC(=O)[C@H](CC(C)C)NC(=O)[C@H](CCCCN)NC(=O)[C@H](CCC(=O)O)NC(=O)[C@H](Cc1ccccc1)NC(=O)[C@@H](NC(=O)[C@H](CCC(=O)O)NC(=O)[C@H](CCCCN)NC(=O)[C@H](CC(C)C)NC(=O)[C@H](Cc1ccc(O)cc1)NC(=O)[C@@H](N)CC(=O)O)C(C)C)[C@@H](C)O)C(C)C)[C@@H](C)O)[C@@H](C)O)C(=O)N[C@@H](Cc1ccccc1)C(=O)N[C@H](C(=O)N[C@@H](CC(=O)O)C(=O)N[C@@H](CCC(N)=O)C(=O)N[C@H](C(=O)N[C@@H](CC(C)C)C(=O)N[C@@H](CO)C(=O)N[C@H](C(=O)N[C@@H](CC(C)C)C(=O)N[C@@H](CCCCN)C(=O)NCC(=O)N[C@@H](CCC(=O)O)C(=O)N[C@@H](CCC(=O)O)C(=O)O)C(C)C)C(C)C)[C@@H](C)O — Tmax (female C57BL/6 mouse, plasma; subcutaneous, single dose): 3 h
COc1ccc(F)cc1S(=O)(=O)Nc1cnc2c(c1)C(=O)NCCO2 — Tmax (male C57BL/6 mouse, plasma; oral, 0.3 mg/kg, single dose): 1 h
CS(C)(=O)=Nc1ccc(-c2ccc(-c3nc4cc(O[C@@H]5CO[C@H]6[C@@H]5OC[C@H]6O)[nH]c4cc3F)cc2)cc1 — Tmax (female C57BL/6 mouse, plasma; oral, 10 mg/kg): 2 h
C[C@H](CCC(=O)N[C@@H](CCCCNC(=O)C(F)(F)F)C(=O)O)[C@H]1CC[C@H]2[C@@H]3[C@H](O)C[C@@H]4C[C@H](O)CC[C@]4(C)[C@H]3C[C@H](O)[C@]12C — Tmax (mouse, plasma; oral, 50 mg/kg): 5 h
CC1(O)CC23CC(O)C4(O)C(C5OC5C4(C)C)C(C)(O)C2CCC1C3O (centres unmarked) — Tmax (mouse, plasma; oral, 0.2 mg/kg): 0.083 h
CCCCCCCC(=O)OC[C@H](NC(=O)[C@H](CO)NC(=O)CN)C(=O)N[C@@H](Cc1ccccc1)C(=O)N[C@@H](CC(C)C)C(=O)N[C@@H](CO)C(=O)N1CCC[C@H]1C(=O)N[C@@H](CCC(=O)O)C(=O)N[C@@H](Cc1cnc[nH]1)C(=O)N[C@@H](CCC(N)=O)C(=O)N[C@@H](CCCNC(=N)N)C(=O)N[C@H](C(=O)N[C@@H](CCC(N)=O)C(=O)N[C@@H](CCC(N)=O)C(=O)N[C@@H](CCCNC(=N)N)C(=O)N[C@@H](CCCCN)C(=O)N[C@@H](CCC(=O)O)C(=O)N[C@@H](CO)C(=O)N[C@@H](CCCCN)C(=O)N[C@@H](CCCCN)C(=O)N1CCC[C@H]1C(=O)N1CCC[C@H]1C(=O)N[C@@H](C)C(=O)N[C@@H](CCCCN)C(=O)N[C@@H](CC(C)C)C(=O)N[C@@H](CCC(N)=O)C(=O)N1CCC[C@H]1C(=O)N[C@@H](CCCNC(=N)N)C(=O)O)C(C)C — Tmax (mouse, plasma; intraperitoneal, 1.2 mg/kg): 0.0833 h
CC(C)[C@H]1NC(=O)C[C@H]2/C=C/CCSSC[C@@H](NC1=O)C(=O)N[C@H](Cc1cccc3ccccc13)C(=O)NCC(=O)O2 — Tmax (nude mouse, blood; oral, 12 mg/kg): 0.25 h
CSCC[C@H](NC(=O)CNC(=O)[C@H](CC(=O)O)NC(=O)[C@@H](NC(=O)[C@@H](NC(=O)[C@@H](NC(=O)CNC(=O)[C@H](CCC(=O)O)NC(=O)[C@H](CCSC)NC(=O)[C@H](CC(=O)O)NC(=O)[C@H](C)NC(=O)[C@H](C)NC(=O)[C@@H](NC(=O)[C@H](CO)NC(=O)[C@@H](N)CC(C)C)[C@@H](C)O)C(C)C)C(C)C)[C@@H](C)O)C(=O)N[C@@H](C)C(=O)N[C@@H](CO)C(=O)NCC(=O)N[C@@H](CC(C)C)C(=O)N[C@@H](CC(=O)O)C(=O)N[C@@H](CCCCN)C(=O)N[C@@H](CC(=O)O)C(=O)N[C@@H](Cc1ccc(O)cc1)C(=O)N[C@@H](CC(C)C)C(=O)N[C@@H](CCCCN)C(=O)N1CCC[C@H]1C(=O)N[C@@H](CC(=O)O)C(=O)N[C@@H](CC(=O)O)C(=O)O — Tmax (male CD-1 mouse, serum; intravenous, 480 mg/kg, single dose): 0.0333 h
CCCCCCCC(=O)NC[C@H](NC(=O)[C@H](CO)NC(=O)CN)C(=O)N[C@@H](Cc1ccccc1)C(=O)N[C@@H](CC(C)C)C(=O)N[C@@H](CO)C(=O)N1CCC[C@H]1C(=O)N[C@@H](CCC(=O)O)C(=O)N[C@@H](Cc1c[nH]cn1)C(=O)N[C@@H](CCC(N)=O)C(=O)N[C@@H](CCCNC(=N)N)C(=O)N[C@H](C(=O)N[C@@H](CCC(N)=O)C(=O)N[C@H](C(=O)N[C@@H](CCCNC(=N)N)C(=O)N1CCC[C@H]1C(=O)N1CCC[C@H]1C(=O)N[C@@H](Cc1c[nH]cn1)C(=O)N[C@@H](CCCCN)C(=O)N[C@@H](C)C(=O)N1CCC[C@H]1C(=O)N[C@@H](Cc1c[nH]cn1)C(=O)N[C@H](C(=O)N[C@H](C(=O)O)C(C)C)C(C)C)C(C)C)C(C)C — Tmax (mouse, plasma; intraperitoneal, 7.2 mg/kg): 0.0833 h
CC[C@H](C)[C@@H]1NC(=O)[C@H](Cc2ccc(O)cc2)NC(=O)[C@@H](N)CSSC[C@@H](C(=O)NCC(=O)N[C@@H](CCCCNC(=O)COCCOCCNC(=O)COCCOCCNC(=O)CC[C@H](NC(=O)CC[C@H](NC(=O)CCCCCCCCCCCCCCCCC(=O)O)C(=O)O)C(=O)O)C(=O)NCC(N)=O)NC(=O)[C@H](CC(N)=O)NC(=O)[C@H](CCC(N)=O)NC1=O — Tmax (C57BL/6 mouse, plasma; intraperitoneal, 1 mg/kg, single dose): 1 to 4 h

Excerpt of the above:
CCCCCCCC(=O)NC[C@H](NC(=O)[C@H](CO)NC(=O)CN)C(=O)N[C@@H](Cc1ccccc1)C(=O)N[C@@H](CC(C)C)C(=O)N[C@@H](CO)C(=O)N1CCC[C@H]1C(=O)N[C@@H](CCC(=O)O)C(=O)N[C@@H](Cc1c[nH]cn1)C(=O)N[C@@H](CCC(N)=O)C(=O)N[C@@H](CCCNC(=N)N)C(=O)N[C@H](C(=O)N[C@@H](CCC(N)=O)C(=O)N[C@H](C(=O)N[C@@H](CCCNC(=N)N)C(=O)N1CCC[C@H]1C(=O)N1CCC[C@H]1C(=O)N[C@@H](Cc1c[nH]cn1)C(=O)N[C@@H](CCCCN)C(=O)N[C@@H](C)C(=O)N1CCC[C@H]1C(=O)N[C@@H](Cc1c[nH]cn1)C(=O)N[C@H](C(=O)N[C@H](C(=O)O)C(C)C)C(C)C)C(C)C)C(C)C — Tmax (mouse, plasma; intraperitoneal, 7.2 mg/kg): 0.0833 h
CC[C@H](C)[C@@H]1NC(=O)[C@H](Cc2ccc(O)cc2)NC(=O)[C@@H](N)CSSC[C@@H](C(=O)NCC(=O)N[C@@H](CCCCNC(=O)COCCOCCNC(=O)COCCOCCNC(=O)CC[C@H](NC(=O)CC[C@H](NC(=O)CCCCCCCCCCCCCCCCC(=O)O)C(=O)O)C(=O)O)C(=O)NCC(N)=O)NC(=O)[C@H](CC(N)=O)NC(=O)[C@H](CCC(N)=O)NC1=O — Tmax (C57BL/6 mouse, plasma; intraperitoneal, 1 mg/kg, single dose): 1 to 4 h
